Experimental data gathered from unrelated publications.
Parts stem from different laboratories: compare values within a part only. Positions count from the first letter of the parent shown.

Series 1 — technique: aptamer microarray, sandwich; molecule type: DNA with 2'F-ANA; sample: in vitro; concentration: 200 nM; together with: Cy3 exosite-II aptamer, 400 nM; direction: higher = stronger binding; oligonucleotide: GGTTGGTGTGGTTGG
Target: Prothrombin, mature alpha-thrombin (F2, Homo sapiens, UniProt P00734)
Setting: whole 15-mer aptamer, many near background
`2'F-ANA at 6 9 11 13 14 15`: “mean fluorescence intensity” 136 a.u.
`2'F-ANA at 2 5 6 12`: “mean fluorescence intensity” 182 a.u.
`2'F-ANA at 1 2 4 5 8 9 13 14 15` — result for “mean fluorescence intensity”: 54.8 a.u.
Under “mean fluorescence intensity”, `2'F-ANA at 1 2 3 4 5 7 8 11 12` is recorded as 97 a.u.
Under “mean fluorescence intensity”, `2'F-ANA at 2 3 4 5 6 7 8 10 11 12 13 15` is recorded as 71.4 a.u.
For `2'F-ANA at 1 2 6 9 10 12 13 14`, “mean fluorescence intensity” read 81.5 a.u.
`2'F-ANA at 3 4 10 11 13 14 15` — result for “mean fluorescence intensity”: 320 a.u.
`2'F-ANA at 1 2 6 9 10 11 15` — result for “mean fluorescence intensity”: 54.7 a.u.

Series 2 — target: CCNA2, cyclin fold, Cln2 fusion (human); technique: yeast growth competition, sequencing; sample: yeast; setting: strong parent motif; reference: not given; direction: higher = stronger binding; starting sequence: viral docking peptide; YKVKRRLVFGADD
`YKVTRRLVFGADD [K4T]` — result for “normalised enrichment score”: 4.88.
`YKVKVRLVFGADD [R5V]`: “normalised enrichment score” 4.54.
`YKVKRRLVFTADD [G10T]` — result for “normalised enrichment score”: 6.03.
Under “normalised enrichment score”, `YKVFRRLVFGADD [K4F]` is recorded as 3.98.
`YDVKRRLVFGADD [K2D]` — result for “normalised enrichment score”: 5.75.
Under “normalised enrichment score”, `YKVKRRLVFQADD [G10Q]` is recorded as 6.2.
`YKVKRRLVFLADD [G10L]`: “normalised enrichment score” 6.09.
`YRVKRRLVFGADD [K2R]` — result for “normalised enrichment score”: 6.49.
Under “normalised enrichment score”, `YVVKRRLVFGADD [K2V]` is recorded as 5.88.
`YKVKRRLVEGADD [F9E]`: “normalised enrichment score” -0.0654.
For `YKCKRRLVFGADD [V3C]`, “normalised enrichment score” read 5.74.
`YKNKRRLVFGADD [V3N]` — result for “normalised enrichment score”: 1.89.
`YKVKRRLVFGMDD [A11M]` — result for “normalised enrichment score”: 6.34.
For `YKVKRFLVFGADD [R6F]`, “normalised enrichment score” read 2.51.
For `YKVKNRLVFGADD [R5N]`, “normalised enrichment score” read 1.08.
`YKVMRRLVFGADD [K4M]`: “normalised enrichment score” 4.12.
Under “normalised enrichment score”, `YKVKLRLVFGADD [R5L]` is recorded as 2.26.
`YGVKRRLVFGADD [K2G]`: “normalised enrichment score” 6.09.
`YKVKRRLVFGATD [D12T]` — result for “normalised enrichment score”: 6.65.
For `YKVKRRLVFSADD [G10S]`, “normalised enrichment score” read 5.86.
`YKVKRRLVWGADD [F9W]`: “normalised enrichment score” 6.17.
`YKKKRRLVFGADD [V3K]`: “normalised enrichment score” 3.
`YKVKRRLVFGLDD [A11L]`: “normalised enrichment score” 6.3.
`YKVHRRLVFGADD [K4H]`: “normalised enrichment score” 5.87.
For `YKVKRREVFGADD [L7E]`, “normalised enrichment score” read 0.182.

Series 3 — effect on: phage display binding; technique: phage display panning NGS; molecule type: peptide; setting: panning round 3; reference: OGT-panned over input library
Target: UDP-N-acetylglucosamine--peptide N-acetylglucosaminyltransferase 110 kDa subunit (OGT, Homo sapiens, UniProt O15294)
Chain of UniProt O15294 (whole entry, looked up): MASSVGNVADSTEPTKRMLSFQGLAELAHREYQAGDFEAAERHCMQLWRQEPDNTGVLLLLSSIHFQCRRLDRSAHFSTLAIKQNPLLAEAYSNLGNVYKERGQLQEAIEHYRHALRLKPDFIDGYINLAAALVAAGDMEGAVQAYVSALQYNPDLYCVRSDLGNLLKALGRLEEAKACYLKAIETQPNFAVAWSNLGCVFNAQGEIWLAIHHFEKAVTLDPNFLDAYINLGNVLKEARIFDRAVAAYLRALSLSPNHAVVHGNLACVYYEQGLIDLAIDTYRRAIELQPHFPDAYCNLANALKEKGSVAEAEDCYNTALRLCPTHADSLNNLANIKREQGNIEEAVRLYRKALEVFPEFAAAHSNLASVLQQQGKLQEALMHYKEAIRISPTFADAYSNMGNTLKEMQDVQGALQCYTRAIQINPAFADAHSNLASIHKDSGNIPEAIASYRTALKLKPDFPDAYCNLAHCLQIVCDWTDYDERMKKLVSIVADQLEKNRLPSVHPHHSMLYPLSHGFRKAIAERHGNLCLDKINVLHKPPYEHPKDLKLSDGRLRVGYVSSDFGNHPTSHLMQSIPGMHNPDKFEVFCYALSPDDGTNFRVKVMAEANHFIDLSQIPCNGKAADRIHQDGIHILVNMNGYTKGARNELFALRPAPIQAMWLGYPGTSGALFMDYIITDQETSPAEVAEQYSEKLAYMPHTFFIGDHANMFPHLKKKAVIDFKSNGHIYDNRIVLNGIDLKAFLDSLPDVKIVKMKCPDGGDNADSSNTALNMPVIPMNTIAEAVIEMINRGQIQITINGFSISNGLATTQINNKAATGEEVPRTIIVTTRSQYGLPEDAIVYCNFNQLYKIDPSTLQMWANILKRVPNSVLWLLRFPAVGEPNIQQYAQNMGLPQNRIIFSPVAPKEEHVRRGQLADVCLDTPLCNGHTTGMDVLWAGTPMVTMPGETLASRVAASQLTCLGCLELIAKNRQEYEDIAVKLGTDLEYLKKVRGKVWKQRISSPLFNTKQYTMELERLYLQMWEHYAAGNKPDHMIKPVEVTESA
For `YAPQYQILFNYNIKL`, the fold enrichment was 1.94.
The fold enrichment of `FPSFLPAYPIEYSNT` is reported as 6.02.
`AFSPFFPVYSIEIRR` gave a fold enrichment of 2.79.
`VGMNQNAYMPMYQIH` gave a fold enrichment of 2.45.
`DTRWVPSYQIKYSYM` gave a fold enrichment of 1.97.

Series 4 — target: Sox, HMG box (Pigoraptor chileana); technique: Spec-seq; molecule type: double-stranded DNA, one strand shown; sample: in vitro; concentration: not given; setting: whole probe, mean of replicates; reference: not given; direction: lower = stronger binding; constant ends, left off below: GAGTCGTCTCGTCAGCAC … CCGTAGAGCACTCAGGTC
Target sequence (chain): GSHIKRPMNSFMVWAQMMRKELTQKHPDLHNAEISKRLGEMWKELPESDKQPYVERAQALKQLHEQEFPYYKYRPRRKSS
Under “relative binding energy”, `CATATAC` is recorded as -0.122 ln ratio.
`GCCGGTT` — result for “relative binding energy”: 1.03 ln ratio.
Under “relative binding energy”, `CATTCTC` is recorded as -1 ln ratio.
`GCCAGTT`: “relative binding energy” 0.365 ln ratio.
`TCTTGTT` — result for “relative binding energy”: -2.03 ln ratio.
`CATAAAG`: “relative binding energy” -0.964 ln ratio.
`CATATGG` — result for “relative binding energy”: -0.0668 ln ratio.
Under “relative binding energy”, `CATAATT` is recorded as -0.539 ln ratio.

Series 5 — target: vanadate, free oxyanion; technique: microfluidic competitive inhibition; sample: in vitro, cell-free expressed; concentration: not given; direction: lower = stronger binding
Setting: derived from inhibition constants, unchanged parent 676 nM
Starting sequence: PafA, mature enzyme, eGFP fusion (Elizabethkingia meningoseptica, UniProt Q9KJX5); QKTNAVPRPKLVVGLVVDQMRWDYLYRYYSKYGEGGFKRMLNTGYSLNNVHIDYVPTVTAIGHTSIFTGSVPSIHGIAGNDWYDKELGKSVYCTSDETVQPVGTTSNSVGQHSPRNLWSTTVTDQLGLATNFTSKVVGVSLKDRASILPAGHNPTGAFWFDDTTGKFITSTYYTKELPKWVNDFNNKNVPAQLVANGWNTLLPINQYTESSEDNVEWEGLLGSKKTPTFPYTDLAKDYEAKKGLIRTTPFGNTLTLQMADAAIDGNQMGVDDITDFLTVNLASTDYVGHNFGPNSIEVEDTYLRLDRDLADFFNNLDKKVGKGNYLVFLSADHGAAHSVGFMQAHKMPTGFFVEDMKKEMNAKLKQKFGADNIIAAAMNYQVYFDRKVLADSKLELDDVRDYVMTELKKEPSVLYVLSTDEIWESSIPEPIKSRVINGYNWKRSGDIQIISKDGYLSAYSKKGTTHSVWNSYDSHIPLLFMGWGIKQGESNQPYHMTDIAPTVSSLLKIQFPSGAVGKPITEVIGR
Under “oxyanion analog dissociation constant”, `S119G` is recorded as 401 nM.
For `K225V`, “oxyanion analog dissociation constant” read 604 nM.
For `I509V`, “oxyanion analog dissociation constant” read 864 nM.
`Y45G`: “oxyanion analog dissociation constant” 602 nM.

Mixed results
`H2BC3 (Homo sapiens, UniProt P33778)` — result for interaction screen: “cross-linked” (H2AC12 (Homo sapiens, UniProt Q96KK5); cross-linking MS; hits only).

Some of these lines once more (series 2):
`YKNKRRLVFGADD [V3N]` — result for “normalised enrichment score”: 1.89.
`YKVKRRLVFGMDD [A11M]` — result for “normalised enrichment score”: 6.34.
For `YKVKRFLVFGADD [R6F]`, “normalised enrichment score” read 2.51.
For `YKVKNRLVFGADD [R5N]`, “normalised enrichment score” read 1.08.
